# Published values from different studies.
# A part holds a random share of what one study measured.
# Chain of UniProt Q9Y6M4 (whole entry, looked up): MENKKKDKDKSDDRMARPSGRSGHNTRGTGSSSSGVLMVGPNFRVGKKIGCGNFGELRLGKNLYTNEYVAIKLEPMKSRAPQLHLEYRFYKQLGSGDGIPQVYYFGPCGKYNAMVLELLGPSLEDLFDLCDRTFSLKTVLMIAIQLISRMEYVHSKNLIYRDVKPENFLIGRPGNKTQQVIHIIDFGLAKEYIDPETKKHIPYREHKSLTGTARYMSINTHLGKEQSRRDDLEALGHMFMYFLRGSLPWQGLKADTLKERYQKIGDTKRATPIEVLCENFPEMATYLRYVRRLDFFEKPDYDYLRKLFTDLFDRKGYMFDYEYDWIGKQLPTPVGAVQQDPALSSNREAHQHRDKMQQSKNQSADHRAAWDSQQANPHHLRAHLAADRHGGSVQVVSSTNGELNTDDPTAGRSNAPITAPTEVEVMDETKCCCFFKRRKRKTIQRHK
# Chain of UniProt P45984 (whole entry, looked up): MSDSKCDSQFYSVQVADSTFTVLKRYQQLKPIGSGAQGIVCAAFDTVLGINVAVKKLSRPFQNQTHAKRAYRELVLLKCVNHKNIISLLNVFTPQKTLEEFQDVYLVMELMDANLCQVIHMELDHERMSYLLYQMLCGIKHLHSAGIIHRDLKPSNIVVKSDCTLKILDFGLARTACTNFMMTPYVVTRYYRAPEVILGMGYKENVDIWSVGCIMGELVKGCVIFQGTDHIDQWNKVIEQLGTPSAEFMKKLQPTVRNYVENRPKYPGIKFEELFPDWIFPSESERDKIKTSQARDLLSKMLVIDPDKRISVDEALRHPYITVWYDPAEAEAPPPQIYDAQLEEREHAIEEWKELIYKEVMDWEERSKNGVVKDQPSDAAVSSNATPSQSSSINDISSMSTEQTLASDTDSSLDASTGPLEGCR
# Chain of UniProt P36507 (whole entry, looked up): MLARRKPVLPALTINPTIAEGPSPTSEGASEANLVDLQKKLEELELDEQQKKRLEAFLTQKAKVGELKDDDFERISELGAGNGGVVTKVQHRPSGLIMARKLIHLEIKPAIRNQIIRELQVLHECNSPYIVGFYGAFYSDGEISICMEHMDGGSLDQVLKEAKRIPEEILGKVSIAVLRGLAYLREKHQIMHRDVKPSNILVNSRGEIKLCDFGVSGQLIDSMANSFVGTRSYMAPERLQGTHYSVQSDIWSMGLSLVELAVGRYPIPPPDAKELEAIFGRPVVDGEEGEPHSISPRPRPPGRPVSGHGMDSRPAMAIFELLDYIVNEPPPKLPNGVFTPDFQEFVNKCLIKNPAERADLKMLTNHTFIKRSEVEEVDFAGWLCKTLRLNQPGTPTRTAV
# Chain of UniProt Q12866 (whole entry, looked up): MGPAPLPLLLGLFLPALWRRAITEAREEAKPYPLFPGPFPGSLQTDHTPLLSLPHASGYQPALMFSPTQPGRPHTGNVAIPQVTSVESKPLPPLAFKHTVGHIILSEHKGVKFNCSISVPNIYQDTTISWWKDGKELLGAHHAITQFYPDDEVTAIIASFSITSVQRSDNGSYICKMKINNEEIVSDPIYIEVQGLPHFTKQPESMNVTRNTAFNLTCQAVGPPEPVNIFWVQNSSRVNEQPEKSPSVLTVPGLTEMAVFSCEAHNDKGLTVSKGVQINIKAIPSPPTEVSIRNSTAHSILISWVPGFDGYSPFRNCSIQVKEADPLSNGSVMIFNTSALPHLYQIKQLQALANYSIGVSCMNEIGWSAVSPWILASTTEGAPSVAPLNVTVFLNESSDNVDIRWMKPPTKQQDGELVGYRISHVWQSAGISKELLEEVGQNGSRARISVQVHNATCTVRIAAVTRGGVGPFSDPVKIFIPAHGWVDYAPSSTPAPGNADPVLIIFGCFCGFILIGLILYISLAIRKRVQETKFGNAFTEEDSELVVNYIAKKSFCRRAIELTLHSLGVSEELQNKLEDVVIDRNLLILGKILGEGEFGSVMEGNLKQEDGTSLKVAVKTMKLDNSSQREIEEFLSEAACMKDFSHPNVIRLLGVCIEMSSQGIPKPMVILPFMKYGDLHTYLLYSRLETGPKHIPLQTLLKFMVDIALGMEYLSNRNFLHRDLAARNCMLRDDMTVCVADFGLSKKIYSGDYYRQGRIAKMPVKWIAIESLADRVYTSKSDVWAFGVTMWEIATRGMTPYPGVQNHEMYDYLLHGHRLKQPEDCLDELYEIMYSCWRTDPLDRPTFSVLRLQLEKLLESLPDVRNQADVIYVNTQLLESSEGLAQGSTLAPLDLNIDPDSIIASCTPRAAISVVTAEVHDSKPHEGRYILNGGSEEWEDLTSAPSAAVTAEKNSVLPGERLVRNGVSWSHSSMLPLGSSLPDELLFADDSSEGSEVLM
# Chain of UniProt P27361 (whole entry, looked up): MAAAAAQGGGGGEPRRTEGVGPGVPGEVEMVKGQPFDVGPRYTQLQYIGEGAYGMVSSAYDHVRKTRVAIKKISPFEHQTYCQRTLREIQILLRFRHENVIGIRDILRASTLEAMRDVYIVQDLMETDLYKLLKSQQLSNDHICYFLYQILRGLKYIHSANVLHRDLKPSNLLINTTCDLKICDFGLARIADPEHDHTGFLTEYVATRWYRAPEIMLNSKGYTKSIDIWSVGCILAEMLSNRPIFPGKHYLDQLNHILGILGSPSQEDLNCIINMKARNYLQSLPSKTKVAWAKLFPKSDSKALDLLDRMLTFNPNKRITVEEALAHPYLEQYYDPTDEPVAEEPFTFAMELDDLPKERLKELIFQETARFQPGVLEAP
# Chain of UniProt P30291 (whole entry, looked up): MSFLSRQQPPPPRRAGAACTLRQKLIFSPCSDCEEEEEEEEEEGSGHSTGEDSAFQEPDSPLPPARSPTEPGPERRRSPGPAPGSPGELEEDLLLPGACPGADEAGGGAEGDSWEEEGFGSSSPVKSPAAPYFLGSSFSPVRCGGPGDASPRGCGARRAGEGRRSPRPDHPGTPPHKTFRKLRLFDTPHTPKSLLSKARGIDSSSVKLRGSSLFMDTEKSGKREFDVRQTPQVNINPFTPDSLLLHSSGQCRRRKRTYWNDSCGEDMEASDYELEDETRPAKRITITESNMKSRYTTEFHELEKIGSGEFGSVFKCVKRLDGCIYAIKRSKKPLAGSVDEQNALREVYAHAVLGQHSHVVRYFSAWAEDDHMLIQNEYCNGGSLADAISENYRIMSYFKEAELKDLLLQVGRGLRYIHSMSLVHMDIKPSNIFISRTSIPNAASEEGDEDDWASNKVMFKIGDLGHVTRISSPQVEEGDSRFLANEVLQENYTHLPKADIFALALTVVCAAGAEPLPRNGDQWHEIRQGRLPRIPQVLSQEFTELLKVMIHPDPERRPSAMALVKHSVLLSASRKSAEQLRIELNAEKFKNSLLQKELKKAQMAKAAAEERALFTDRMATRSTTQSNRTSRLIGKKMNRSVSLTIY
# Chain of UniProt Q8WTQ7 (whole entry, looked up): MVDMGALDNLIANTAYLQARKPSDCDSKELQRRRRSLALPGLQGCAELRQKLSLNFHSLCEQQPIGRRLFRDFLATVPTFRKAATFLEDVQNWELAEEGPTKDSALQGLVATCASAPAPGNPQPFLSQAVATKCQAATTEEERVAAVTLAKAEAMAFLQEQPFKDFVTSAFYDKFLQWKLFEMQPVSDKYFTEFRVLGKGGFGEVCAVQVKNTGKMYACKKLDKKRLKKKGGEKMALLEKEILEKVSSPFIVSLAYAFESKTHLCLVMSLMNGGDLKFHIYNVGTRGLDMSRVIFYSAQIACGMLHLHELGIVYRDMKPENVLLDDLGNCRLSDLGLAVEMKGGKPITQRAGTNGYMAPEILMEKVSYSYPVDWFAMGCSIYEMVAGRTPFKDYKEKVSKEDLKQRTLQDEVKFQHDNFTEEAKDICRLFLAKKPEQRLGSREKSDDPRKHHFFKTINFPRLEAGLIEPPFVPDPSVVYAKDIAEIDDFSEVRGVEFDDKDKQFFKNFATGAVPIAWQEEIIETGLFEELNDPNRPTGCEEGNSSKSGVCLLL
# Chain of UniProt O43613 (whole entry, looked up): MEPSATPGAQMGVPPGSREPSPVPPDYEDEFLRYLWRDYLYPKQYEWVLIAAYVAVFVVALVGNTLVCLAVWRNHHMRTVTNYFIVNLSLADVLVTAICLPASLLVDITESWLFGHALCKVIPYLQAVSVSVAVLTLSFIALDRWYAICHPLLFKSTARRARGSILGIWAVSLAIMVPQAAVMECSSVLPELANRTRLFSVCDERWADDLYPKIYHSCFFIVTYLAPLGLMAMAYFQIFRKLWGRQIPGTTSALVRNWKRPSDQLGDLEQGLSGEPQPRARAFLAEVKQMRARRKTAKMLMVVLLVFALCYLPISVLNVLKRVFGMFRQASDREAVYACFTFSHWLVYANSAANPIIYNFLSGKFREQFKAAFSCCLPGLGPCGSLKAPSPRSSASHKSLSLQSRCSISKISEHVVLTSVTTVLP
# Chain of UniProt P42685 (whole entry, looked up): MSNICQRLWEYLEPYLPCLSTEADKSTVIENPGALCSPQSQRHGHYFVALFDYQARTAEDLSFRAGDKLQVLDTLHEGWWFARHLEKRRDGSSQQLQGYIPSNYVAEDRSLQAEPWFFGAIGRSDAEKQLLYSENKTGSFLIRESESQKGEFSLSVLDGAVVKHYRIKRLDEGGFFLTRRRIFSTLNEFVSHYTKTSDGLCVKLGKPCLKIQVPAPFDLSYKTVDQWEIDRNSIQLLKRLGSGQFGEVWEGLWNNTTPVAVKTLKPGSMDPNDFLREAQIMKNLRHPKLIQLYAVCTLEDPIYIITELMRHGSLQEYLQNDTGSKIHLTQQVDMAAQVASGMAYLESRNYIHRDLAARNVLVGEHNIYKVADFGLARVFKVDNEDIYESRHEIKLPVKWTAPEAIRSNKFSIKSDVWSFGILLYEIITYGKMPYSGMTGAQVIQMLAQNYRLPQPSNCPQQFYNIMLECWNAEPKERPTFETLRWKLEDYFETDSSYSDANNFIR

# Sample 1 — observed: cell-free assay; technique: competition with immobilised ligand; concentration: 1 µM
# SMILES: CS(=O)(=O)c1cc(C2(NC(=O)c3cncc4c3cnn4-c3ccc(F)cc3)CC2)ccn1
target,remaining binding [%]
"MAPK9 (Homo sapiens, UniProt P45984)",100
"PRKAA2 (Homo sapiens, UniProt P54646)",100
"PAK2 (Homo sapiens, UniProt Q13177)",100
"CDKL1 (Homo sapiens, UniProt Q00532)",69

# Sample 2 — action: inhibitor; concentration: 10 µM; relative to: control
# Target: Diamine acetyltransferase 1 (Homo sapiens, UniProt P21673)
# Residues (P21673 1-171): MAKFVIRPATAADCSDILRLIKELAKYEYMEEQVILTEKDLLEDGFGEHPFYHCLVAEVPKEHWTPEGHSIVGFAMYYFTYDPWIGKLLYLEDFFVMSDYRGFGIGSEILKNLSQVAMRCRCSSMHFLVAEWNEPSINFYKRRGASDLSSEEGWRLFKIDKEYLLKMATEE
SMILES,remaining activity
O=c1cc(-c2ccc(O)cc2)oc2cc(O[C@@H]3O[C@H](CO)[C@@H](O)[C@H](O)[C@H]3O[C@@H]3OC[C@](O)(CO)[C@H]3O)cc(O)c12,101%
CC1CC[C@@]2(OC1)O[C@H]1C[C@H]3[C@@H]4CCC5CC(O)CC[C@]5(C)[C@H]4CC[C@]3(C)[C@H]1[C@@H]2C (stereo partly drawn),88.3%
COc1cc(CO)ccc1O,91.7%
OC[C@H]1O[C@@](CO)(OC[C@@]2(OC[C@@]3(OC[C@@]4(OC[C@@]5(OC[C@@]6(O[C@H]7O[C@H](CO)[C@@H](O)[C@H](O)[C@H]7O)O[C@H](CO)[C@@H](O)[C@@H]6O)O[C@H](CO)[C@@H](O)[C@@H]5O)O[C@H](CO)[C@@H](O)[C@@H]4O)O[C@H](CO)[C@@H](O)[C@@H]3O)O[C@H](CO)[C@@H](O)[C@@H]2O)[C@@H](O)[C@@H]1O,79.5%

# Sample 3 — observed: kinase activity; action: inhibitor; concentration: 1 µM
# Structure (SMILES): CC(C)S(=O)(=O)c1ccc2nccc(Nc3ccc4sc(C5CCCC5)nc4c3)c2c1.Cl
target,remaining activity [%]
"MARK1 (Homo sapiens, UniProt Q9P0L2)",97
"MET (Homo sapiens, UniProt P08581)",117
"CSNK1G3 (Homo sapiens, UniProt Q9Y6M4)",109
"EPHA2 (Homo sapiens, UniProt P29317)",95
"CAMK2G (Homo sapiens, UniProt Q13555)",102
"AAK1 (Homo sapiens, UniProt Q2M2I8)",99

# Sample 4 — cell line: A-375; concentration: 100 µM; time: 18 h
SMILES,viability
COCCCC/C(=N\OCCN)c1ccc(C(F)(F)F)cc1,8.71%
COc1ccccc1OCC(O)CN1CCN(CC(=O)Nc2c(C)cccc2C)CC1 (stereo not drawn),84.8%
Cc1cnc(C(=O)N[C@H]2CCCCC/C=C\[C@@H]3C[C@@]3(C(=O)NS(=O)(=O)C3CC3)NC(=O)[C@@H]3C[C@@H](Oc4nc5ccccc5c5ccccc45)CN3C2=O)cn1,35.9%
CCCCCCCCc1ccc(CCC(N)(CO)CO)cc1,8.52%

# Sample 5 — SMILES: O=C(c1ccccc1)c1ccc(N2CCOCC2)cc1O; observed: enzyme activity; action: inhibitor; concentration: 0.5 µM; relative to: control
target,remaining activity
"GRK7 (Homo sapiens, UniProt Q8WTQ7)",99.6%
"MERTK (Homo sapiens, UniProt Q12866)",94.5%
"ACVR1B (Homo sapiens, UniProt P36896)",104%
"FGFR1 (Homo sapiens, UniProt P11362)",95.9%
"CSNK1G3 (Homo sapiens, UniProt Q9Y6M4)",98.8%
"MST1R (Homo sapiens, UniProt Q04912)",106%
"NEK1 (Homo sapiens, UniProt Q96PY6)",115%
"JAK3 (Homo sapiens, UniProt P52333)",103%
"MAP3K14 (Homo sapiens, UniProt Q99558)",75.1%
"LCK (Homo sapiens, UniProt P06239)",101%
"MAP3K5 (Homo sapiens, UniProt Q99683)",97.8%
"MAPKAPK2 (Homo sapiens, UniProt P49137)",102%
"MAPK3 (Homo sapiens, UniProt P27361)",102%
"GSK3B (Homo sapiens, UniProt P49841)",118%
"NEK6 (Homo sapiens, UniProt Q9HC98)",95%
"MAP2K2 (Homo sapiens, UniProt P36507)",101%
"TAOK2 (Homo sapiens, UniProt Q9UL54)",107%
"RPS6KA2 (Homo sapiens, UniProt Q15349)",102%
"FRK (Homo sapiens, UniProt P42685)",102%
"TBK1 (Homo sapiens, UniProt Q9UHD2)",100%
"ULK2 (Homo sapiens, UniProt Q8IYT8)",96.7%
"FGFR3 (Homo sapiens, UniProt P22607)",104%
"WEE1 (Homo sapiens, UniProt P30291)",94.2%
"CSNK1G2 (Homo sapiens, UniProt P78368)",96.1%
"EPHA3 (Homo sapiens, UniProt P29320)",105%

# Sample 6 — host: human; matrix: microsomes or S9; concentration: 2 µM; time: 0.5 h
Structure (SMILES),remaining compound [%]
Cc1ccc(-n2ccc3c(cnc4ccn(-n5cnnc5)c(=O)c43)c2=O)cc1C,95.2
Clc1ccc(C2=NN(c3ccccc3)C(c3ccccc3Cl)C2)cc1 (stereo not drawn),91
O=S(=O)(Nc1ccc2[nH]ncc2c1)c1cc(Cl)c(Cl)cc1Cl,> 99
COc1ccc(-c2n[nH]c(-c3ccccn3)n2)cc1,44.3
O=C(c1ccco1)N1CCN(C(=O)c2ccc(C[S+]([O-])Cc3ccccc3Cl)o2)CC1 (stereo not drawn),67.9

# Sample 7 — observed: β-arrestin recruitment; action: agonist; technique: PRESTO-Tango; concentration: 10 µM; relative to: untreated
# Structure (SMILES): N=C(N)NC(=O)c1cnn(-c2cccc3ncccc23)c1C1CC1
target,fold over basal
"HCRTR1 (Homo sapiens, UniProt O43613)",0.8 fold
"G protein-coupled receptor 88 (Homo sapiens, UniProt Q9GZN0)",1.27
"SSTR4 (Homo sapiens, UniProt P31391)",1.14 fold
